Experimental data pooled from the literature.
A part holds a random share of what one study measured.

Block 1
Target: Histone acetyltransferase KAT6A, winged helix 1, GST fusion (KAT6A, Homo sapiens, UniProt Q92794, residues 1-85)
Technique: protein binding microarray
Molecule type: double-stranded DNA, one strand shown
Medium: in vitro
Concentration: not given
Notes: 8-mer, flanks averaged, mean of 2 arrays, mostly near background
Reference: not given
Reading: higher = stronger binding
Residues (chain): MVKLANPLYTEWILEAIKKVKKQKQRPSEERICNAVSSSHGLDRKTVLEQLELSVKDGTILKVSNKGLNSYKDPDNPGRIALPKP
Oligonucleotide	E-score
AAGGGATA	-0.182
CGTGCACC	-0.11
ATTAGAGC	-0.0124
ACAGGCAG	-0.185
AATTGCAT	-0.152

Block 2
Target: Centromere-binding protein 1, full length, N-terminal tag (CBF1, Saccharomyces cerevisiae, UniProt P17106, residues 1-351)
Sequence of UniProt P17106 (whole entry, looked up): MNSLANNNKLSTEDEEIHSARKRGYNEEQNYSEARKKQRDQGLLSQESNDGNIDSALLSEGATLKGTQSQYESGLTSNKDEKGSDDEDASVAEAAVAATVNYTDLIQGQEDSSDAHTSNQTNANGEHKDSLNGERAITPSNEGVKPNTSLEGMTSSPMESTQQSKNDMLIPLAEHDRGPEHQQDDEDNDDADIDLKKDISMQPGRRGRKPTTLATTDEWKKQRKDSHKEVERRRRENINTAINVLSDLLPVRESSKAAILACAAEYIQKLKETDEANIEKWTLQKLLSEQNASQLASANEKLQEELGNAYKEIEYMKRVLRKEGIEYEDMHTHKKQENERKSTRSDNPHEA
Technique: protein-binding microarray
Molecule type: double-stranded DNA, one strand shown
Medium: in vitro
Concentration: 0.8 µM
Notes: whole 60-bp probe, no competitor
Reading: higher = stronger binding
Oligonucleotide	fluorescence intensity
GAATTTCTTATTGCTTACACCTGATAATCATCCTAGGTCTTGATTCGCTTGACGCTGCTG	754 a.u.
GAATTCTTATTGGGTGGCGTGCCGTACAGAACGTAGGTCTTGATTCGCTTGACGCTGCTG	842 a.u.
GAATTCATTTACTGTCACGGACTACTTTCATCATAGGTCTTGATTCGCTTGACGCTGCTG	815 a.u.
CTAAAAAAGGTTTAACACATGAATTAAAAAGGATTCGTCTTGATTCGCTTGACGCTGCTG	567 a.u.

Block 3
Target: Sal-like protein 4, full length isoform B (SALL4, Homo sapiens, UniProt Q9UJQ4-2, residues 1-616)
Technique: universal PBM
Molecule type: double-stranded DNA, one strand shown
Medium: in vitro
Concentration: not given
Notes: 8-mer, flanks averaged, mean of replicates
Reading: higher = stronger binding
Oligonucleotide	E-score
GGTGTCAA	-0.0411
GCCAACAA	-0.0616
GAAACGTA	0.17

Mixed results
Molecule	target	test	test system	setting	how to read	measurement	value
PhoQ, residues 284 288 289 292 302 303 ALASRC	PhoP, residues 12 14 15 18 19 SYFRT (Escherichia coli, UniProt P23836)	Sort-seq, refers to: YFP reporter	E. coli	PhoQ-PhoP variant library, together with: 10 µM Mg2+	reference: high Mg2+ state, higher = stronger signaling	fold induction	4.69

For quick reference, copied from above (block 2):
Oligonucleotide	fluorescence intensity
GAATTTCTTATTGCTTACACCTGATAATCATCCTAGGTCTTGATTCGCTTGACGCTGCTG	754 a.u.
